Measured values of several laboratories.
Numbered parts are unrelated; each lists some results of a single study.

Set 1
Target: Prothrombin, mature alpha-thrombin (F2, Homo sapiens, UniProt P00734)
Method: aptamer microarray, sandwich
Molecule type: DNA with 2'F-ANA
Sample: in vitro
Tested at: 200 nM
Setting: whole 15-mer aptamer, many near background
Together with: Cy3 exosite-II aptamer, 400 nM
Direction: higher = stronger binding
Oligonucleotide: GGTTGGTGTGGTTGG
Modification | mean fluorescence intensity [a.u.]
2'F-ANA at 2 5 7 9 12 14 15 | 63.5
2'F-ANA at 1 2 5 6 10 12 | 50.8
2'F-ANA at 3 4 5 7 9 12 13 | 116
2'F-ANA at 2 4 12 14 15 | 194
2'F-ANA at 4 7 8 11 15 | 329

Set 2
Target: Centromere-binding protein 1, full length, N-terminal tag (CBF1, Saccharomyces cerevisiae, UniProt P17106, residues 1-351)
Sequence of UniProt P17106 (whole entry, looked up): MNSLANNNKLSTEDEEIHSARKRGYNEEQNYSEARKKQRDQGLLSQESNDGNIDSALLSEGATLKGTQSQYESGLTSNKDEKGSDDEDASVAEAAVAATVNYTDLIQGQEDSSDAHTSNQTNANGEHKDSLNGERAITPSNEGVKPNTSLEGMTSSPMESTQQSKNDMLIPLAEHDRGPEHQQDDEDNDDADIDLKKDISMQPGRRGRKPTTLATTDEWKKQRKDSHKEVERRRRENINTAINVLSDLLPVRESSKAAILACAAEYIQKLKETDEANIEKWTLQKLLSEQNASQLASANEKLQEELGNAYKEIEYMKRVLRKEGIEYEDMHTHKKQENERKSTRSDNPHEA
Method: protein-binding microarray
Molecule type: double-stranded DNA, one strand shown
Sample: in vitro
Tested at: 0.8 µM
Setting: whole 60-bp probe, no competitor
Direction: higher = stronger binding
Oligonucleotide | fluorescence intensity [a.u.]
CTACTGATAAAAACCTCCGTGATTTTTTGAATATTCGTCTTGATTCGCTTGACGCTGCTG | 543
CTAAGATCGCACCAGCGCGTGGGGCTCTTTCATTTCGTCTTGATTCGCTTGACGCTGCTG | 480
CTACGCTTTACGGGTCACGCGCGGATTTTGACTTTCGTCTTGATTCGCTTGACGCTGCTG | 3070
GAACTGTAAGTTGATTGCGTGGGACGTCTAGCGTAGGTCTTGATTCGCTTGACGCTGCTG | 501
CTAGTAAAGAATTGCTACGTGGTGACTCAAAGTTTCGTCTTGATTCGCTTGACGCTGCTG | 548

Set 3
Target: Histone acetyltransferase KAT6A, winged helix 2, GST fusion (KAT6A, Homo sapiens, UniProt Q92794, residues 85-181)
Method: protein binding microarray
Molecule type: double-stranded DNA, one strand shown
Sample: in vitro
Tested at: not given
Setting: 8-mer, flanks averaged, mean of 2 arrays, mostly near background
Reference: not given
Direction: higher = stronger binding
Residues (chain): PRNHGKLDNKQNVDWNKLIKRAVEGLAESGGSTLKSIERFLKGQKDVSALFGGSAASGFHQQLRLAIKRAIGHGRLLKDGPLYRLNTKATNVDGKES
Oligonucleotide | E-score
CGGAACCC | 0.108
CATCATCG | -0.0912
ATGAGGCC | 0.0586
ACATGAAG | 0.00144
CCAGCGAC | 0.0318
AAAATGGT | 0.0114
ACACTAAC | 0.0204
CGTCCCGA | -0.0295
AAATCCAT | 0.0672
GCCGCTCC | 0.0758
AGACAGCT | -0.117

Other studies, line by line
Substance | target | assay | system | conditions | how to read | endpoint | result
PhoQ, residues 284 288 289 292 302 303 NSMLDC | PhoP, residues 12 14 15 18 19 LHHSG (Escherichia coli, UniProt P23836) | Sort-seq, refers to: YFP reporter | E. coli | PhoQ-PhoP variant library, together with: 10 µM Mg2+ | reference: high Mg2+ state, higher = stronger signaling | fold induction | 20.1

Repeated from above (set 2):
Oligonucleotide | fluorescence intensity [a.u.]
CTACTGATAAAAACCTCCGTGATTTTTTGAATATTCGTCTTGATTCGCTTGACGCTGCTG | 543
CTAAGATCGCACCAGCGCGTGGGGCTCTTTCATTTCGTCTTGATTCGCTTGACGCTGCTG | 480
CTACGCTTTACGGGTCACGCGCGGATTTTGACTTTCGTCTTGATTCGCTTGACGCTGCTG | 3070
